Measurements gathered from unrelated publications.
A part holds a random share of what one study measured.

Series 1
Target: RNA binding protein fox-1 homolog 2, RRM domain, GST-SBP tag (RBFOX2, Homo sapiens, UniProt O43251-10, residues 100-194)
Method: RNA Bind-n-Seq
Form: RNA
Matrix: in vitro
Tested at: 365 nM
Setting: natural RNA segment, single round, ends assumed
Baseline: no-protein control
Direction: higher = stronger binding
Endpoint: RBNS enrichment (R)
Shared flanks, not repeated: GGGAGUUCUACAGUCCGACGAUC … UGGAAUUCUCGGGUGCCAA
Target sequence (chain): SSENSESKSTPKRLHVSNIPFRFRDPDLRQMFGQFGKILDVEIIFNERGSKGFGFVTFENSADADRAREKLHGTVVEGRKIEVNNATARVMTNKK
GUGGAAGAGCCCAGGGGCUGGUCCCAGAACAGGCAGUCUCACAAGCACGCAGCACACUGGAGUGGACGCCUGUGCCCACCCGAGCCUGGAGCAUGGCCAAGAGCCAGCUU: 11.4
GGGAGCCUCUGUUCUGGUGGGGGCCACCUCCCUCAGAGGCUCUGCUAGCCACACUCCGUGGCCCACCCUUUGUUACCAGUUCUUCCUCCUUCCUCUUUUCCCCUGCCUUU: 0.417
UCUUCCCAAACCCAUGGUGCUUUUUCCCCAACUCAACCUAGACUCCAAGGUGGGGAGGGAUGGGUCAGAGGCCAUAGUGGCCCCUGGAUAAUCCUGACGUGGGGUGGAGU: 0.396
AGAGGCCCUGGACAGAAGCUCCAGAUAGGCCCCUAGAACAUGAAGCAGUUUGCUCUGUGCGUCCACGGCCUAGGUGUUUCUUGGGGGUGUUGGGAGGGCAGGAGCAUUCC: 0.272
CUGUGCACUACAGUCCAGAGGAAGGUAUCCACUGUGCAGCUGAAACAGGAGGCCACAAACAACCUAACAAAACCUAGGAGACCCAGCCAAGUAAAGUCCCGAGGACUGGU: 0.443
ACCUAGGCUCCUGGACCCACACCCUCCUCAGGCUGACUUUACUGCCUUGGGAGAAGUCUACAUUUCCCAGACAAUAGUCUAGGCCUCUGGAACAGUUUCCUUCUCUGCUU: 0.246
UCCACAAGAAGCAUGGGCACCCAGCCAAACUUGAACCUGGAAGGGAGGGUUCCCGGCCUGCAGGUGCUCUUUCCUCUUGGUCCCAAGCAUCUGUGCAGGGUCGUGGGAGC: 2.39
AUGAGAGUGUAGUCAAGGGCCUGGGCACAGGAGGGAGAGCUGCAGAGUGUCCUGCCUGCCUUGGCUGGAGGGACACCUCUCCUGGGUGUGGAGACAGCUUGGUUCCCUUU: 0.533
CCUGCAAGUGAUGCUACAGCUUCCAGCCCGUUGCCCCACUCAUCUGCCGCCUUUGCUUUUGGUUGGGGGCAGAUUGGGUUGGAAUGCUUUCCAUCUCCAGGAGACUUUCA: 0.287
CGAGGAGUGUAACUGAACCAGGAAUAUUUCCUCCAUUCCUGCUCUCCCACUGCACACAGGGUGGUGGCACAUUAUCCCUCUGGGGGGUGGGGACGCCUGUUGUUUUGGCU: 1.19
UCAUGAAAGGGGCAGUUGCACAGUGGAAUGACUCCUCUCCUGGAUCUGGGGACAGCAUACACUUCUUCCCCAGCUCAGUAAUGGGUGAAGUCACUUCCGGAGGUGGUCAC: 0.303
GUGGGCUAGUCACCAAAGGAUGAAGUUCAGCACGUGGGACAGAGAUAACGACAAUUACCAAGGAAACUGUGCUGAGGAAGAGCAGUCUGGCUGGUGGUUUAACAGGUGUC: 0.757

Series 2
Target: Interferon regulatory factor 5, full length, phosphomimetic (IRF5, Homo sapiens, UniProt Q13568-2, residues 1-514, K96S/S451D/S453D/S456D/S462D)
Method: protein-binding microarray
Form: double-stranded DNA, one strand shown
Matrix: in vitro
Tested at: 250 nM
Setting: 60-bp whole probe
Added: salmon DNA 0.4 mg/ml
Baseline: random background probes
Direction: higher = stronger binding
Endpoint: log fluorescence
Shared flanks, not repeated: GCCTAGCAC … GTCTTGATTCGCTTGACGCTGCTG
GACGGTTTCGGGACTGGGGAGGTGCTA: 4.74 z-score
TATGTTCCCTATATAAGGCGGTGCTAG: 0.128 z-score
GACGGCTTCGGTTCCGGGACGTGCTAG: 0.395 z-score
GACGGTTTCGTTTCCCTGACGTGCTAG: 6.32 z-score
TTAGGTTCCGGTTTCGGTTTGTGCTAG: 9.46 z-score
TTACGTATCGGTCTCGGTTAGTGCTAG: 8.14 z-score
GAAGTAATTTCAAACCACAGGTGCTAG: 0.256 z-score
TCACATCTCTCTTAAATACTGTGCTAG: 0.63 z-score
TTAGGTTTCGGGGATCGGTTAGTGCTA: 6.46 z-score
GAAAATCAACCAGGTGGTGTGTGCTAG: 0.777 z-score
GAAGGTATCGACTATCGGGACGTGCTA: 3.65 z-score

Series 3
Target: Ras GTPase-activating protein-binding protein 1, full length (G3BP1, Homo sapiens, UniProt Q13283)
UniProt Q13283, sequence (whole entry, looked up): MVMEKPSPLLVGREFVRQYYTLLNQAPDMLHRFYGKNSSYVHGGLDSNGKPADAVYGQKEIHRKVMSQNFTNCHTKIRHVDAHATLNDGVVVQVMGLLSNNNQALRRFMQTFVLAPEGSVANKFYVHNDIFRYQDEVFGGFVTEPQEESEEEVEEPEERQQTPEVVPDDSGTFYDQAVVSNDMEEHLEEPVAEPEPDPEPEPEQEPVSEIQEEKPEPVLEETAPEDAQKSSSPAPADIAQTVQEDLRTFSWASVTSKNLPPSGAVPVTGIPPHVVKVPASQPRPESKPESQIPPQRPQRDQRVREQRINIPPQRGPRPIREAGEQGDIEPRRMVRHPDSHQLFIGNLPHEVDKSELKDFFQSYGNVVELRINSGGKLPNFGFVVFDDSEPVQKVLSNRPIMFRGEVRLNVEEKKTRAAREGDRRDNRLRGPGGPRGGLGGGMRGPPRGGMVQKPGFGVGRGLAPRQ
Method: RNA Bind-n-Seq
Form: RNA
Matrix: in vitro
Tested at: 200 nM
Setting: whole 134-nt RNA, ends assumed
Added: 150 mM KCl
Baseline: input library
Direction: higher = stronger binding
Endpoint: log2 enrichment
Shared flanks, not repeated: GGGAGUUCUACAGUCCGACGAUC … UGGAAUUCUCGGGUGUCAAGG
AGUCCUGUGCUACACAUCGUAUGUACCGAAUCGGGGUUUUUGGGGAAAGGGGUGGGGAAAGUAUUAUGUUACGCCGUUCGGAUCUGCACU: 0.242
ACCAUGCAGGUGGGCAUCUUUGGGAAGUGGGGCAAGGUGGGGAUAGGGAGGGGGGUAACACUUUGGGAACAGGUGGUCCCAGGUCGUUUC: 1.02
GCAGGAAGUAAAAACAAAUGGAAAUGCUUCGGUUAGUGGCAGGGGUGGGGGUUGCUAAGGAAAGGGUGGGAUGGGAGUGGGUAAAGAGUU: 0.649
CCUCAAGUCCUGUGCUACACAUCGUAUGUACCGAAUCGGAGGGGAGGGGAGGGAAAGUAUUAUGUUACGCCGUUCGGAUCUGCACUUCCA: 1.34
UUUUCUCACGAUGCACCUCCCCCUGGCACUAAGAAAAAGCACUUAUCCAUUGAGCAGCUGAAUGCUCGUCGCAGGAAAGUAUGGCUCAGC: -0.466
UGAAUGCUGAGAAUGUUGCUGGUCACCAGAUUGCCUCUGAAACACAGAUCCUUGAGGGCUCUUUGGGAAUAUCUGUAAAGUCACACUGCA: 0.13
AGUCCUGUGCUACACAUCGUAUGUACCGAAUCGGUUUUUGGUUUUUGGGGUUUUUGGGAAAGUAUUAUGUUACGCCGUUCGGAUCUGCAC: -1.05
ACCAUGCAGGUGGGCAUCUUUGGGAAGUGGGGCAAGGGGGGGAUAGGGAGGGGGAAAACACUUUGGGAACAGGUGGUCCCAGGUCGUUUC: 1.12
AGUCCUGUGCUACACAUCGUAUGUACCGAAUCGGGGUUUGGGGUUUUUGGGGUGGGGAAAGUAUUAUGUUACGCCGUUCGGAUCUGCACU: 0.628
ACAAUGCAGGUGGGCAUCUUUGGGAAGUGGGGCAAGGGGGGGAUAGGGAGGGGGGUAACACUUUGGGAACAGGUGGUCCCAGGUCGUUUC: 1.49
UGGCCCUGGUGGCAUGCGGGGAGGAAGAGGUGGCGUCAUGGAUCGUGGUGGUCCCGGUGGAAUGUUCAGAGGUGGCCGUGGUGGAGACAG: 0.715
AGUCCUGUGCUACACAUCGUAUGUACCGAAUCGGUUUUUGGAAAAAAAGGUUUUUGGAAAGUAUUAUGUUACGCCGUUCGGAUCUGCACU: -1.66
ACCAUGCAGGUGGGCAUCUUUGGGAAGUGGGGCAAGUGGGGGAUAGGGAGGGGGGUAACACUUUGGGAACAGGUGGUCCCAGGUCGUUUC: 1.07
AAGUCCUGUGCUACACAUCGUAUGUACCGAAUCGGGUUUGGGUUUUUGGGAAAGGGAAAGUAUUAUGUUACGCCGUUCGGAUCUGCACUU: 0.0872

Series 4
Target: Histone acetyltransferase KAT6A, winged helix 1, GST fusion (KAT6A, Homo sapiens, UniProt Q92794, residues 1-85)
Method: protein binding microarray
Form: double-stranded DNA, one strand shown
Matrix: in vitro
Tested at: not given
Setting: 8-mer, flanks averaged, mean of 2 arrays, mostly near background
Baseline: not given
Direction: higher = stronger binding
Endpoint: E-score
Construct (chain): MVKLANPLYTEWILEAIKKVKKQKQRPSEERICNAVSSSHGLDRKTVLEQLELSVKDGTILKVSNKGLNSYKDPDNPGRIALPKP
CTGACGTA: 0.05
AAGGGTAC: -0.19
ATCTAGCA: -0.18
CAGCTGGA: -0.271
GAAGTCAC: -0.0584
ACTTCTTA: -0.168
ATGTTGCG: 0.0977
CTGTACCA: -0.131
GGGGCTTA: -0.00833
CACGCGAG: 0.0682
CGCTTACA: 0.0249
ACGACTGG: 0.0588
AAGCGTTC: 0.00601
TAGGTACA: -0.101

Series 5
Target: Sal-like protein 4, full length isoform B (SALL4, Homo sapiens, UniProt Q9UJQ4-2, residues 1-616)
Method: universal PBM
Form: double-stranded DNA, one strand shown
Matrix: in vitro
Tested at: not given
Setting: 8-mer, flanks averaged, mean of replicates
Direction: higher = stronger binding
Endpoint: E-score
GGCCAGCA: -0.245
GTTTCGAA: 0.0365
AATCTAAC: 0.137
ATCAACTC: 0.0157
CCCGCTAA: -0.222
AGGATCGA: -0.012
CGGTACAC: -0.25
GCCGACGA: -0.207
GACTGTCA: 0.00542
GCAGCTCC: -0.312
AATTAAAC: 0.247
TCCAAAAA: 0.26
TATTCCCA: 0.188
CCGCCCGA: -0.262
AAGGACTG: -0.195
GCTACACA: 0.1
GGTTGTCA: -0.00974
CCGAATAA: 0.129
AAATTGGC: 0.0706
CTCCGATC: -0.277
ACGTATCT: 0.0281
AGGGGTGA: -0.161
GCCTCCAA: -0.136
CGGCTCTA: -0.135
AAGGCCGC: -0.206

Excerpt of the above (series 5):
TCCAAAAA: 0.26
TATTCCCA: 0.188
CCGCCCGA: -0.262
AAGGACTG: -0.195
GCTACACA: 0.1
GGTTGTCA: -0.00974
CCGAATAA: 0.129
AAATTGGC: 0.0706
CTCCGATC: -0.277
